Results pooled from the literature.
Protocols differ between the studies behind these lines.

Compound	assay	test system	setting	measurement	value
CC(C)C[C@H](NC(=O)CNC(=O)c1cc(Cl)ccc1Cl)B(O)O	item: Vomiting, all grades	newly diagnosed multiple myeloma patients	oral, dose not given, maintenance phase, new onset, cycle 17 or later	patients with adverse event	28%
O=C(Nc1nc2cccc(-c3ccc(CN4CCS(=O)(=O)CC4)cc3)n2n1)C1CC1	item: anaemia	rheumatoid arthritis patients	oral, 150 mg once daily, 4 weeks, any relatedness	patients with adverse event	0%
CCOc1c([C@H](C)n2nc(C)c3c(N)ncnc32)cc(Cl)c(F)c1[C@@H]1CNC(=O)C1	item: QTcF above 500 ms	previously treated B-cell malignancy	oral, 15 mg once daily, baseline QTcF ≤450 ms	patients	0%
NC(=O)N1c2ccccc2C=Cc2ccccc21	–	male patients	oral, dose not given, treatment-related adverse events	patients with Constipation	20%
Cc1cc(NC2CCN(C(=O)OC3CCN(C(=O)/C=C/CN(C)C)C3)CC2)n2ncc(C(C)C)c2n1 (centres unmarked)	Phase I dose escalation CTCAE v4.0, item: Dyspnea	patients with advanced solid tumours	dose not given, all dose schedules any grade	patients with adverse event	15%
C=CC(=O)NC1CCN(c2ncc3ncnc(Nc4ccc(Oc5ccc6c(c5)ncn6C)c(C)c4)c3n2)CC1	–	male patients	oral, dose not given, treatment-related adverse events	patients with Diarrhea	0%
CNC(=O)c1cc(Oc2ccc(NC(=O)Nc3cc(C(C)(C)C)nn3-c3ccc4ncccc4c3)c(F)c2)ccn1	–	patients	oral, dose not given, cycles 1 and 2, Medium Cmax subgroup	patients with nervous system disorders	47%
COc1ccc([C@@H](O)c2cc(-c3ncnc4cc(N5CCOCC5)ccc34)c(F)cc2Cl)nn1	–	locally advanced rectal cancer patients	150 mg, drug-related adverse events, added: capecitabine and radiotherapy	patients with investigation abnormalities	33%
COc1cc(Nc2ncc3c(n2)-c2ccc(Cl)cc2C(c2c(F)cccc2OC)=NC3)ccc1C(=O)O	item: Fever, grade 3	cancer patients, phase 1/2	oral, dose not given, added: pembrolizumab	patients with adverse event	4%
COc1cc2nccc(Oc3ccc(NC(=O)c4cc5c(n(-c6ccccc6)c4=O)CCCC5=O)nc3)c2cc1OC	–	patients with relapsed/refractory AML	oral, 10 mg once daily	patients with serious TEAEs	85.7%
Cc1cc(-c2nnc(N)nc2-c2ccc(F)cc2)cc(Cl)n1	item: Hypothyroidism	IO-naive colorectal cancer patients	oral, dose not given, treatment-related, all grades	patients with immune-mediated AE	0%
CNC(=O)c1ccc(-c2cnc3ncc(Cc4ccc5ncccc5c4)n3n2)cc1F	item: Dizziness, all grades	cancer patients	oral, 600 mg twice daily, other expansion cohort, any causality	patients with adverse event	11%
C[C@@H](Nc1cc(F)cc(F)c1)c1cc(C(=O)N(C)C)cc2c(=O)cc(N3CCOCC3)oc12	item: Colitis	advanced solid tumour patients	oral, dose not given, dose finding	patients discontinuing for AE	4.8%
C=CC(=O)Nc1cc(Nc2nccc(-c3cn(C)c4ccccc34)n2)c(OC)cc1N(C)CCN(C)C	item: Pneumonitis grade ≥3	EGFR-mutant MET-altered NSCLC	oral, study	patients with treatment-related AEs	0%

Repeated from above:
Compound	assay	test system	setting	measurement	value
CCOc1c([C@H](C)n2nc(C)c3c(N)ncnc32)cc(Cl)c(F)c1[C@@H]1CNC(=O)C1	item: QTcF above 500 ms	previously treated B-cell malignancy	oral, 15 mg once daily, baseline QTcF ≤450 ms	patients	0%
